Literature values that unrelated publications cite.
Each line is one published result; not all experiments were run side by side. ± marks the error that the study gave.
Chain of UniProt C7C422 (whole entry, looked up): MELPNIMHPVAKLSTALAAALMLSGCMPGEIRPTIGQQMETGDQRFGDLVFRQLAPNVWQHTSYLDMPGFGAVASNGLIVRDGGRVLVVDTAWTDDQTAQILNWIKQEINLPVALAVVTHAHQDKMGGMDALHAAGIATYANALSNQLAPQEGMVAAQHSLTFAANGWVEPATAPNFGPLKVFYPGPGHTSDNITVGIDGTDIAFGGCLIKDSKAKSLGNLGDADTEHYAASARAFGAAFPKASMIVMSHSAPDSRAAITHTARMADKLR
Chain of UniProt P26769 (whole entry, looked up): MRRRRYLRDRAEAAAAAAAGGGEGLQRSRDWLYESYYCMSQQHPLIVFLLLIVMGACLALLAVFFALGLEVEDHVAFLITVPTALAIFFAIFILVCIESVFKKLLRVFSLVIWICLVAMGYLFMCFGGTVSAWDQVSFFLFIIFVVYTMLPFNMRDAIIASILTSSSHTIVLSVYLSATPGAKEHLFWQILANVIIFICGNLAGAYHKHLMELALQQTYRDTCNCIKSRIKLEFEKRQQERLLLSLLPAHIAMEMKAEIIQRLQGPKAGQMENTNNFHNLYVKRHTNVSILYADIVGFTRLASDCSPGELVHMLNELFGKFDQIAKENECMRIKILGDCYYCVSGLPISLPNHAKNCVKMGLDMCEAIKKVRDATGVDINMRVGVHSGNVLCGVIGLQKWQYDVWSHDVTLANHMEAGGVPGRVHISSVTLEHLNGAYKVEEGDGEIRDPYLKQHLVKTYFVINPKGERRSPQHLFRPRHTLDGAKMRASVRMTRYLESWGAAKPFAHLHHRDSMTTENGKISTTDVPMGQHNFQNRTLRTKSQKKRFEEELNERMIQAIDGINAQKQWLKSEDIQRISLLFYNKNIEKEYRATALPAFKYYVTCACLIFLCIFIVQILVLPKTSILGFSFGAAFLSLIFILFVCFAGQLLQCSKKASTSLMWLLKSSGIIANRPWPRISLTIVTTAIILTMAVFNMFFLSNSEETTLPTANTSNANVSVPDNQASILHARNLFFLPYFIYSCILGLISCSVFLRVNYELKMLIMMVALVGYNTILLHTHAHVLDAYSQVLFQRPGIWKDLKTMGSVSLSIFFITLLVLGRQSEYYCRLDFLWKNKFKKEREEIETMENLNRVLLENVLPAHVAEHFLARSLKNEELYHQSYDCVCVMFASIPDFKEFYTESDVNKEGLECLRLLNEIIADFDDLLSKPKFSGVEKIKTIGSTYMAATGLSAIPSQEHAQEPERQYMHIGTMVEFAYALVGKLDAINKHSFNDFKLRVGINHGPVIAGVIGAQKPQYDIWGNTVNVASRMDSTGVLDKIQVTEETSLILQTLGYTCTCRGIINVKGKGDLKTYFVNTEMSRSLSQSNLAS
Chain of UniProt P41020 (whole entry, looked up): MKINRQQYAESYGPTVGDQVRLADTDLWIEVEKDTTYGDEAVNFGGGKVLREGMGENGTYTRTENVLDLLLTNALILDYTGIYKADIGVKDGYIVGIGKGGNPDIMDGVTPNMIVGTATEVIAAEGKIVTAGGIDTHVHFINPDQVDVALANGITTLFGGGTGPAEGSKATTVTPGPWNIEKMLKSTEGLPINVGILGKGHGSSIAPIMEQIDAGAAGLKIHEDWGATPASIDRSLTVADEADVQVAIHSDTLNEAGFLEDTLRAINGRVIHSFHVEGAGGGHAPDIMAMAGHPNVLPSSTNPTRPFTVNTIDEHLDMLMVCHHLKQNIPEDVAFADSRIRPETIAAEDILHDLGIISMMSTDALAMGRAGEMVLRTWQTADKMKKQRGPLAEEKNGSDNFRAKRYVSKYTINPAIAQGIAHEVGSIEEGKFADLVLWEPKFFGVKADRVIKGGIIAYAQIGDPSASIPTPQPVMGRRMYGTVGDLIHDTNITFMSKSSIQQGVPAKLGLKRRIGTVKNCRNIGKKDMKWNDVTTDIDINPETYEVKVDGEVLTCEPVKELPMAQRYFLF
Chain of UniProt P52699 (whole entry, looked up): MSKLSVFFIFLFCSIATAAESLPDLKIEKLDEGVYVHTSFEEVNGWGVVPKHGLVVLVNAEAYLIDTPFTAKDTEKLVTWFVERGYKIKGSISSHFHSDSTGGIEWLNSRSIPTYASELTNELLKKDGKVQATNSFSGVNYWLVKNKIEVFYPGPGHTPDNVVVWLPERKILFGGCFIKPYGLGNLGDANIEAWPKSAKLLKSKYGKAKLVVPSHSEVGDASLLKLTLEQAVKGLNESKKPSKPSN

O[C@H]1[C@H](O)[C@@H](CF)NC[C@@H]1O  Ki (α-glucosidase (pig liver); inhibitor): > 5000 µM
O=C(O)[C@@H]1CS[C@H]2CS[C@H](CS)N21  Ki (VIM-2 (Escherichia coli, UniProt Q5U7L7); inhibitor): 2.9 ± 0.4 µM
CSC[C@H]1CN(Cc2c[nH]c3c(N)ncnc23)C[C@@H]1O  Ki (MTA/SAH nucleosidase Klebsiella pneumoniae; inhibitor): 0.000784 µM
CN(C[C@H](O)[C@@H](O)[C@H](O)[C@H](O)CO)C(=O)c1ccc(CN(Cc2ccccn2)Cc2ccccn2)nc1  Ki (blaNDM-1 (Klebsiella pneumoniae, UniProt C7C422)): 310 µM
CP(=O)(O)CN  Ki (Urease subunit alpha (Sporosarcina pasteurii, UniProt P41020); enzyme activity, inhibitor): 340 ± 22 µM
N[C@@H](Cc1ccccc1)P(=O)(O)O  Ki (phenylalanine ammonia-lyase (maize)): 1.5 µM
COC(=O)N[C@H](C(=O)NN(CC[C@@](O)(Cc1ccccc1)C(=O)N[C@H]1c2ccccc2C[C@H]1O)Cc1ccc(-c2ccncc2)cc1)C(C)(C)C  Ki (Gag-Pol polyprotein, protease (gag-pol, Human immunodeficiency virus type 1 group M subtype B, UniProt P04585)): 0.0023 µM
CC1(C)S[C@H]2CS[C@H](CS)N2[C@@H]1C(=O)O  Ki (Metallo-beta-lactamase type 2 (Serratia marcescens, UniProt P52699); inhibitor): 15 ± 3 µM
COC(=O)C1C(OC(c2ccc(Cl)cc2)c2ccc(Cl)cc2)CC2CCC1N2C (single isomer, unassigned)  Ki (dopamine transporter): 0.0126 ± 0.0004 µM
CCCC[C@@H](C(=O)N[C@@H](CC(=O)O)C(=O)N[C@@H](Cc1ccccc1)C(N)=O)N(C)C(=O)[C@@H](Cc1c[nH]c2ccccc12)NC(=O)CNC(=O)[C@@H](Cc1ccccc1)NC(=O)[C@@H](N)Cc1ccc(O)cc1  Ki (δ-opioid receptor; binding): 0.00055 µM
C=CC(=O)N1CCC[C@@H](n2nc(-c3cn(C)c4ccccc34)c3c(N)ncnc32)C1  Ki (EGFR (Homo sapiens, UniProt P00533)): 0.025 ± 0.0072 µM
CCN1CCCC1CNC(=O)c1cc(Br)cc(OC)c1OC (centres unmarked) [carbon-11 labelled]  Ki (dopamine D3 receptor; together with: [3H]spiperone): 0.00042 µM
Nc1ccccc1C(=O)O[C@H]1[C@@H](O)[C@H](n2cnc3c(=O)[nH]cnc32)O[C@@H]1COP(=O)(O)O  Ki (Adcy2 (Rattus norvegicus, UniProt P26769); enzyme activity, inhibitor; Sf9 membranes; together with: 5 mM MnCl2 and 100 µM forskolin): 7.5 ± 1.4 µM
CC(C)C[C@H](NC(=O)[C@@H]1CCCN1C(=O)[C@@H](N)CCCCN)C(=O)N[C@@H](CCC(=O)O)C(=O)N[C@H](CN[C@@H](Cc1ccc(O)cc1)C(=O)N[C@@H](CCCNC(=N)N)C(=O)N[C@H](C(=O)O)C(C)C)Cc1ccccc1  Ki (Aspartic protease PM4 (Plasmodium vivax, UniProt O60989)): 0.0007 ± 9e-05 µM

For quick reference, copied from above:
COC(=O)N[C@H](C(=O)NN(CC[C@@](O)(Cc1ccccc1)C(=O)N[C@H]1c2ccccc2C[C@H]1O)Cc1ccc(-c2ccncc2)cc1)C(C)(C)C  Ki (Gag-Pol polyprotein, protease (gag-pol, Human immunodeficiency virus type 1 group M subtype B, UniProt P04585)): 0.0023 µM
CC1(C)S[C@H]2CS[C@H](CS)N2[C@@H]1C(=O)O  Ki (Metallo-beta-lactamase type 2 (Serratia marcescens, UniProt P52699); inhibitor): 15 ± 3 µM
